# Published values collected from several papers.
# Each line is one published result; not all experiments were run side by side.
# Organism: Staphylococcus aureus
Substance,assay,system,setting,MIC
CC[C@H](C)[C@H](NC(=O)[C@H](C)NC(=O)[C@H](CCCNC(=N)N)NC(=O)CNC(=O)[C@H](C)NC(=O)[C@H](CCC(=O)O)NC(=O)CNC(=O)[C@H](CC(=O)O)NC(=O)[C@H](Cc1ccc(O)cc1)NC(=O)[C@H](Cc1ccccc1)NC(=O)CNC(=O)[C@H](CCCCN)NC(=O)[C@H](CCCNC(=N)N)NC(=O)[C@H](CC(C)C)NC(=O)[C@H](CO)NC(=O)[C@H](CO)NC(=O)[C@H](Cc1c[nH]c2ccccc12)NC(=O)[C@H](Cc1ccccc1)NC(=O)[C@H](CC(N)=O)NC(=O)[C@H](CCCCN)NC(=O)[C@H](Cc1c[nH]c2ccccc12)NC(=O)[C@H](C)NC(=O)CN)C(=O)N[C@@H](CCCNC(=N)N)C(=O)N[C@@H](CCCNC(=N)N)C(=O)O,broth microdilution,USA300 LAC,37 °C,> 38.9 µM
Cn1ccc(=O)nc1Sc1ccc([N+](=O)[O-])cc1[N+](=O)[O-],microbial growth,ATCC25923,,64.5 µg/mL
CC[C@H](C)[C@H](NC(=O)[C@H](C)NC(=O)CNC(=O)[C@H](C)NC(=O)[C@H](CCCCN)NC(=O)[C@H](CO)NC(=O)[C@H](C)NC(=O)[C@H](CCSC)NC(=O)CN)C(=O)N[C@@H](C)C(=O)NCC(=O)N[C@@H](CCCCN)C(=O)N[C@H](C(=O)N[C@@H](C)C(=O)N[C@@H](CCCCN)C(=O)N[C@H](C(=O)N[C@@H](C)C(=O)N[C@@H](CC(C)C)C(=O)N[C@@H](CCCCN)C(=O)N[C@@H](C)C(=O)N[C@@H](CC(C)C)C(N)=O)C(C)C)[C@@H](C)CC,broth microdilution,USA300 LAC,37 °C,25 µM
CC[C@H](C)[C@H](NC(=O)[C@H](Cc1c[nH]cn1)NC(=O)[C@H](Cc1c[nH]cn1)NC(=O)[C@H](Cc1ccccc1)NC(=O)[C@@H](N)Cc1ccccc1)C(=O)N[C@@H](Cc1ccccc1)C(=O)N[C@@H](CCCNC(=N)N)C(=O)NCC(=O)N[C@@H](C)C(=O)N[C@H](C(=O)N[C@@H](Cc1c[nH]cn1)C(=O)N[C@H](C(=O)NCC(=O)N[C@@H](CCCCN)C(=O)N[C@H](C(=O)N[C@H](C(=O)N[C@@H](Cc1c[nH]cn1)C(=O)N[C@@H](CCCNC(=N)N)C(=O)N[C@@H](CC(C)C)C(=O)N[C@H](C(=O)N[C@H](C(=O)NCC(N)=O)[C@@H](C)O)C(C)C)[C@@H](C)CC)[C@@H](C)O)C(C)C)C(C)C,broth microdilution,ATCC 25923,"18 h, 37 °C",3.1 µg/mL
CC[C@H](C)[C@H](NC(=O)[C@@H]1CCCN1C(=O)[C@H](Cc1c[nH]cn1)NC(=O)[C@H](CCCCN)NC(=O)[C@@H]1CCCN1C(=O)[C@@H](N)CCCNC(=N)N)C(=O)N[C@@H](CCCCN)C(=O)N[C@@H](Cc1c[nH]cn1)C(=O)N[C@@H](CCC(N)=O)C(=O)NCC(=O)N[C@@H](CC(C)C)C(=O)N1CCC[C@H]1C(=O)N[C@@H](CCC(N)=O)C(=O)N[C@@H](CCC(=O)O)C(=O)N[C@H](C(=O)N[C@@H](CC(C)C)C(=O)N[C@@H](CC(N)=O)C(=O)N[C@@H](CCC(=O)O)C(=O)N[C@@H](CC(N)=O)C(=O)N[C@@H](CC(C)C)C(=O)N[C@@H](CC(C)C)C(=O)N[C@@H](CCCNC(=N)N)C(=O)N[C@@H](Cc1ccccc1)C(=O)O)C(C)C,broth microdilution,USA300 LAC,37 °C,> 100 µM
CC(C)C[C@H](NC(=O)CN)C(=O)N[C@@H](Cc1ccccc1)C(=O)N[C@@H](CCCCN)C(=O)N[C@@H](CC(C)C)C(=O)N[C@@H](CC(C)C)C(=O)N[C@@H](CCCCN)C(=O)N[C@@H](CCCCN)C(=O)N[C@@H](CC(C)C)C(=O)N[C@@H](CC(C)C)C(=O)N[C@@H](CCCCN)C(=O)N[C@@H](CC(C)C)C(=O)N[C@@H](CC(C)C)C(=O)N[C@@H](CCCCN)C(N)=O,,"ATCC 43300, CAMHB","18 h, 37 °C",> 20 µM
CC(C)C[C@H](NC(=O)[C@H](C)NC(=O)[C@H](CCCCN)NC(=O)[C@H](C)NC(=O)[C@H](C)NC(=O)CNC(=O)[C@H](CCCCN)NC(=O)[C@H](CC(C)C)NC(=O)[C@H](CC(C)C)NC(=O)[C@H](CC(=O)O)NC(=O)[C@H](CCCCN)NC(=O)[C@H](Cc1ccccc1)NC(=O)CN)C(=O)N[C@H](C(=O)N[C@@H](CCCCN)C(=O)N[C@H](C(=O)N[C@H](C(=O)N[C@@H](CC(C)C)C(=O)N[C@@H](Cc1ccccc1)C(N)=O)C(C)C)[C@@H](C)O)C(C)C,broth microdilution,USA300 LAC,37 °C,3.1 µM
CCCCCCC1CC(=O)c2c(O)cc(O)cc2O1 (stereo not shown),broth microdilution,MRSA NRS70,,3.13 to 6.25 µg/mL
CC[C@H](C)[C@H](NC(=O)[C@H](CCCNC(=N)N)NC(=O)[C@@H]1CCCN1C(=O)[C@@H]1CCCN1C(=O)[C@H](CC(C)C)NC(=O)[C@H](CCCNC(=N)N)NC(=O)[C@@H]1CCCN1C(=O)[C@@H]1CCCN1C(=O)[C@H](Cc1ccccc1)NC(=O)[C@H](Cc1ccccc1)NC(=O)[C@@H]1CCCN1C(=O)[C@@H]1CCCN1C(=O)[C@@H]1CCCN1C(=O)[C@H](CCCNC(=N)N)NC(=O)[C@@H]1CCCN1C(=O)[C@H](CCCNC(=N)N)NC(=O)[C@@H]1CCCN1C(=O)[C@H](CC(C)C)NC(=O)[C@H](Cc1ccc(O)cc1)NC(=O)[C@@H]1CCCN1C(=O)[C@@H]1CCCN1C(=O)[C@H](CCCNC(=N)N)NC(=O)[C@@H]1CCCN1C(=O)[C@H](CCCNC(=N)N)NC(=O)[C@H](CCCNC(=N)N)NC(=O)[C@@H](N)CCCNC(=N)N)C(=O)N1CCC[C@H]1C(=O)N1CCC[C@H]1C(=O)NCC(=O)N[C@@H](Cc1ccccc1)C(=O)N1CCC[C@H]1C(=O)N1CCC[C@H]1C(=O)N[C@@H](CCCNC(=N)N)C(=O)N[C@@H](Cc1ccccc1)C(=O)N1CCC[C@H]1C(=O)N1CCC[C@H]1C(=O)N[C@@H](CCCNC(=N)N)C(=O)N[C@@H](Cc1ccccc1)C(=O)N1CCC[C@H]1C(N)=O,broth microdilution,media-adapted JE2,18 to 20 h,4 µg/mL
CC(C)C[C@H](N)C(=O)N[C@@H](CS)C(=O)N1CCC[C@H]1C(=O)N[C@@H](Cc1c[nH]cn1)C(=O)N[C@@H](CCCNC(=N)N)C(=O)N[C@@H](CS)C(=O)O,broth microdilution,MTCC 96,37 °C,90 µg/mL
CC[C@H](C)[C@H](NC(=O)CNC(=O)[C@H](CCCNC(=N)N)NC(=O)[C@H](Cc1ccccc1)NC(=O)[C@@H](NC(=O)[C@H](Cc1c[nH]cn1)NC(=O)[C@H](Cc1c[nH]cn1)NC(=O)[C@H](Cc1ccccc1)NC(=O)[C@@H](N)Cc1ccccc1)[C@@H](C)CC)C(=O)N[C@H](C(=O)N[C@@H](Cc1c[nH]cn1)C(=O)N[C@H](C(=O)NCC(=O)N[C@@H](CCCCN)C(=O)N[C@H](C(=O)N[C@H](C(=O)N[C@@H](Cc1c[nH]cn1)C(=O)N[C@@H](CCCNC(=N)N)C(=O)N[C@@H](CC(C)C)C(=O)N[C@H](C(=O)N[C@H](C(=O)NCC(N)=O)[C@@H](C)O)C(C)C)[C@@H](C)CC)[C@@H](C)O)C(C)C)C(C)C,broth microdilution,ATCC 25923,"18 h, 37 °C",3.1 µg/mL
CC(C)C[C@H](NC(=O)CN)C(=O)N[C@@H](Cc1ccccc1)C(=O)N[C@@H](CC(=O)O)C(=O)N[C@@H](CC(C)C)C(=O)N[C@@H](CC(C)C)C(=O)N[C@@H](CCCCN)C(=O)N[C@@H](CCCCN)C(=O)N[C@@H](CC(C)C)C(=O)N[C@@H](CC(C)C)C(=O)N[C@@H](CCCCN)C(=O)N[C@@H](CC(C)C)C(=O)N[C@@H](CC(C)C)C(=O)N[C@@H](CCCCN)C(N)=O,,"SH1000 GFP-expressing, nutrient broth","20 h, 37 °C",100 µM
N=C(N)NCCC[C@H](N)C(=O)N[C@@H](Cc1c[nH]c2ccccc12)C(=O)N[C@@H](Cc1c[nH]c2ccccc12)C(=O)N[C@@H](CCCCN)C(=O)N[C@@H](CCCCN)C(=O)N[C@@H](Cc1c[nH]c2ccccc12)C(=O)N[C@@H](Cc1c[nH]c2ccccc12)C(=O)NCC(=O)N[C@@H](CCCCN)C(N)=O,broth microdilution,"USA300, Mueller-Hinton broth","overnight, 37 °C",8 µM
CN[C@H](CC(C)C)C(=O)N[C@H]1C(=O)N[C@@H](CC(N)=O)C(=O)N[C@H]2C(=O)N[C@H]3C(=O)N[C@H](C(=O)N[C@H](C(=O)O)c4cc(O)cc(O)c4-c4cc3ccc4O)[C@H](O)c3ccc(c(Cl)c3)Oc3cc2cc(c3O[C@@H]2O[C@H](CO)[C@@H](O)[C@H](O)[C@H]2O[C@H]2C[C@](C)(N)[C@H](O)[C@H](C)O2)Oc2ccc(cc2Cl)[C@H]1O,"microbial growth, broth dilution",ATCCBAA1717 MRSA,20 h,0.98 µg/mL
indolicidin,,ATCC 25923,,3.66 µM
CC(C)C[C@H](NC(=O)[C@H](C)NC(=O)[C@H](CCCCN)NC(=O)[C@H](CC(C)C)NC(=O)[C@H](CC(C)C)NC(=O)[C@H](CCCCN)NC(=O)[C@H](CCCCN)NC(=O)[C@H](CC(C)C)NC(=O)[C@H](CC(C)C)NC(=O)[C@H](CCCCN)NC(=O)[C@H](CC(C)C)NC(=O)[C@H](CC(C)C)NC(=O)[C@@H](N)CCCCN)C(=O)NCC(N)=O,,"ATCC 43300, CAMHB","18 h, 37 °C",10 µM
CC[C@H](C)[C@H](NC(=O)[C@@H]1CCCN1C(=O)[C@H](CCCNC(=N)N)NC(=O)[C@@H]1CCCN1C(=O)[C@H](Cc1c[nH]cn1)NC(=O)[C@H](CO)NC(=O)[C@@H](NC(=O)[C@@H]1CCCN1C(=O)[C@H](CCCNC(=N)N)NC(=O)[C@@H]1CCCN1C(=O)[C@H](CO)NC(=O)[C@H](Cc1ccc(O)cc1)NC(=O)[C@@H]1CCCN1C(=O)[C@H](CCCNC(=N)N)NC(=O)[C@@H]1CCCN1C(=O)[C@H](CCCCN)NC(=O)CN)[C@@H](C)O)C(=O)N[C@@H](CCCNC(=N)N)C(=O)N[C@H](C(=O)O)C(C)C,broth microdilution,USA300 LAC,37 °C,> 100 µM
CC(C)C[C@H](NC(=O)[C@H](C)NC(=O)CNC(=O)[C@H](CC(C)C)NC(=O)[C@H](CC(C)C)NC(=O)[C@H](CCCCN)NC(=O)[C@H](CCCCN)NC(=O)[C@H](CC(C)C)NC(=O)[C@H](CC(C)C)NC(=O)[C@H](CCCCN)NC(=O)[C@H](CC(C)C)NC(=O)[C@H](CC(C)C)NC(=O)[C@@H](N)CCCCN)C(=O)NCC(N)=O,,"SH1000 GFP-expressing, nutrient broth","20 h, 37 °C",10 µM
O=c1c(Cc2ccccc2)nc2ccccc2n1-c1ccc([N+](=O)[O-])cc1[N+](=O)[O-],microbial growth,ATCC25923,,> 500 µg/mL

# Some of these lines once more:
Substance,assay,system,setting,MIC
CC[C@H](C)[C@H](NC(=O)[C@H](C)NC(=O)CNC(=O)[C@H](C)NC(=O)[C@H](CCCCN)NC(=O)[C@H](CO)NC(=O)[C@H](C)NC(=O)[C@H](CCSC)NC(=O)CN)C(=O)N[C@@H](C)C(=O)NCC(=O)N[C@@H](CCCCN)C(=O)N[C@H](C(=O)N[C@@H](C)C(=O)N[C@@H](CCCCN)C(=O)N[C@H](C(=O)N[C@@H](C)C(=O)N[C@@H](CC(C)C)C(=O)N[C@@H](CCCCN)C(=O)N[C@@H](C)C(=O)N[C@@H](CC(C)C)C(N)=O)C(C)C)[C@@H](C)CC,broth microdilution,USA300 LAC,37 °C,25 µM
CC[C@H](C)[C@H](NC(=O)[C@H](Cc1c[nH]cn1)NC(=O)[C@H](Cc1c[nH]cn1)NC(=O)[C@H](Cc1ccccc1)NC(=O)[C@@H](N)Cc1ccccc1)C(=O)N[C@@H](Cc1ccccc1)C(=O)N[C@@H](CCCNC(=N)N)C(=O)NCC(=O)N[C@@H](C)C(=O)N[C@H](C(=O)N[C@@H](Cc1c[nH]cn1)C(=O)N[C@H](C(=O)NCC(=O)N[C@@H](CCCCN)C(=O)N[C@H](C(=O)N[C@H](C(=O)N[C@@H](Cc1c[nH]cn1)C(=O)N[C@@H](CCCNC(=N)N)C(=O)N[C@@H](CC(C)C)C(=O)N[C@H](C(=O)N[C@H](C(=O)NCC(N)=O)[C@@H](C)O)C(C)C)[C@@H](C)CC)[C@@H](C)O)C(C)C)C(C)C,broth microdilution,ATCC 25923,"18 h, 37 °C",3.1 µg/mL
